Published values from different studies.
A part holds a random share of what one study measured. Changes are numbered by the printed parent chain.
UniProt P21728, sequence (whole entry, looked up): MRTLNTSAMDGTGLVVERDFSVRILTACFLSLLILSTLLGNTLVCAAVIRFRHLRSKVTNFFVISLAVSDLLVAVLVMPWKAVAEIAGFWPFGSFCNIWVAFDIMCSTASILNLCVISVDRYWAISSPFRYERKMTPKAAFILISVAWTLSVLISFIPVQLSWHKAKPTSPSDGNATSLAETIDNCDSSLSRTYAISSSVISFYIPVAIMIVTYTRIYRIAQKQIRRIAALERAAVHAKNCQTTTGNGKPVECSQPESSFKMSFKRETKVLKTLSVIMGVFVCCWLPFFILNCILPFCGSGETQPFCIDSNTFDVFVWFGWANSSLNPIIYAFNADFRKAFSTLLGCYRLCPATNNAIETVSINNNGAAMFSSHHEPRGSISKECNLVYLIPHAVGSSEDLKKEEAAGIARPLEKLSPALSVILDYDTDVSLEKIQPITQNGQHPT

Block 1 — technique: RNA Bind-n-Seq; molecule type: RNA; matrix: in vitro; concentration: 20 nM; notes: 6-mer, flanks averaged, single round; added: 150 mM KCl; reference: input library; reading: higher = stronger binding
Target: TAR DNA-binding protein 43, full length, His tag (TARDBP, Homo sapiens, UniProt Q13148, residues 1-414)
For `UCUAGU`, “6-mer enrichment (R)” read 0.6.
For `AAUUUC`, “6-mer enrichment (R)” read 0.578.
`CUGUGA`: “6-mer enrichment (R)” 0.781.
`CGUUAC`: “6-mer enrichment (R)” 0.588.
Under “6-mer enrichment (R)”, `CAGGCU` is recorded as 0.805.
Under “6-mer enrichment (R)”, `AGGGUU` is recorded as 1.71.
For `CUAACC`, “6-mer enrichment (R)” read 0.572.
`GGGGUU`: “6-mer enrichment (R)” 3.31.

Block 2 — target: CCNB3, cyclin fold, Cln2 fusion (human); technique: yeast growth competition, sequencing; matrix: yeast; notes: weak parent motif; reference: not given; reading: higher = stronger binding
Starting sequence: MASTL docking peptide (human); PMIAKNLMCELDE
`PMINKNLMCELDE [A4N]` — result for “normalised enrichment score”: 0.0658.
Under “normalised enrichment score”, `PMIAKCLMCELDE [N6C]` is recorded as 0.0405.
For `PMIAKNLMCTLDE [E10T]`, “normalised enrichment score” read -0.212.
`PMSAKNLMCELDE [I3S]` — result for “normalised enrichment score”: -0.212.
Under “normalised enrichment score”, `PMIAKNFMCELDE [L7F]` is recorded as -0.189.
`PMIAKNLYCELDE [M8Y]`: “normalised enrichment score” -0.0546.
`PMIAKNLMWELDE [C9W]`: “normalised enrichment score” -0.283.
Under “normalised enrichment score”, `PQIAKNLMCELDE [M2Q]` is recorded as 0.117.

Block 3 — technique: RNA Bind-n-Seq; molecule type: RNA; matrix: in vitro; concentration: 365 nM; reference: no-protein control; reading: higher = stronger binding
Target: RNA binding protein fox-1 homolog 2, RRM domain, GST-SBP tag (RBFOX2, Homo sapiens, UniProt O43251-10, residues 100-194)
Notes: natural RNA segment, single round, ends assumed
Residues (chain): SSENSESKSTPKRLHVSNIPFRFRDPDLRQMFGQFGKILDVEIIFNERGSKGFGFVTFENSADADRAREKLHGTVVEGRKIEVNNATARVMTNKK
For `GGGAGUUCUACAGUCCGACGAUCGGCUGCCCUGGAACUCACUUUGCAGACCAGGCUGGCCUCGAACUCAGAAAUCCGCCUGCCUCUGCCUCCCAAGUGCUGGGAUUAAAGGCGUGCGCCACCUCCGCCCAGCUUGGAAUUCUCGGGUGCCAA`, “RBNS enrichment (R)” read 0.335.
`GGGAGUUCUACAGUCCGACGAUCAAGGAUCCUCAUUUGUAUACCUAGUGGAAAGGACUCUGAACUCAGAGGAGUCACUGUUCCUUUUUUUAGGUUAGAAAUUAACAGCAGGGAAAUGCCAUCUUAUUACCUGAUGGAAUUCUCGGGUGCCAA`: “RBNS enrichment (R)” 0.353.
For `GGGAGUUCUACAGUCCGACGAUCAGAUGGCAUCUCAUCGAUGAGAGAGAAUCACAAUCAGAAUGGAAGCACUUUGAGUAUCUGAAGAGUGAGAGCAUUCAUGUUUGACAGGUCCUGCUUCCCACUAUCCUUUUUGGAAUUCUCGGGUGCCAA`, “RBNS enrichment (R)” read 0.323.
For `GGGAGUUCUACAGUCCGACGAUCAUCACAGUCUUGACAAAAUUCCUUUUCCCUAAAGCACACUUUGACAUUGUCACAUUAUUGACACAGUAAUUAGAAACCCACUGUGGCCUCUUCAGGAGUGUGCUUAUGUCUGGAAUUCUCGGGUGCCAA`, “RBNS enrichment (R)” read 0.44.
Under “RBNS enrichment (R)”, `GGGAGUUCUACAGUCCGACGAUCGACUCGACAGUCACCGUAAAAUCUGAGUCAGUCACACACAGGCUGUCAGCCACGGCUUCCACUUGCAUGGCUAUUCUAUUUUCACACGUGAGUUUCUGUUGCUGGCUGGCUGGAAUUCUCGGGUGCCAA` is recorded as 2.84.
`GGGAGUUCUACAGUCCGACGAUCUUGCCAGUUUGAAGACUGUUCUCCUAAAGUGUUCAACCUGCACUUCUUACAACCAAGGUAGUUUGUAUCAUUUUCAAAAGUACACAUUAUUAGGGUCUAGUUGCCCCUGGUGGAAUUCUCGGGUGCCAA` — result for “RBNS enrichment (R)”: 0.268.
For `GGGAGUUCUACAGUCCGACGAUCUUCCCUGUGCUUGGCUCUCCAAAUUUCUGCCCAUCCAUCCUGCCCCUCACACAGUAGUACUAGUUGACAGUACUAGUUGGUUGAAACUAGGGAGACAGUUACCUAGACUAUGGAAUUCUCGGGUGCCAA`, “RBNS enrichment (R)” read 0.414.
Under “RBNS enrichment (R)”, `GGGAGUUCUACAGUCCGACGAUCGGAGGAGGGUGCCACCCUCUCCCUGCCAGGGGCCUGGGGACCCUCUCCCUGGCUGCCUCAGGCUUCUCUUACGAAGAGGAAACGCAAAAAAAGAAAAGGAAAAACCCCGUUGGAAUUCUCGGGUGCCAA` is recorded as 0.378.

Single results of other studies
With `N#CN1CC[C@H](C(=O)Nc2nc3c(s2)CN(C(=O)CN=[N+]=[N-])CC3)C1` the inhibition was -15.9% (D(1A) dopamine receptor (DRD1, Homo sapiens, UniProt P21728); ligand displacement; 10 µM).

Repeated from above (block 3):
For `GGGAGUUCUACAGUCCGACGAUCAUCACAGUCUUGACAAAAUUCCUUUUCCCUAAAGCACACUUUGACAUUGUCACAUUAUUGACACAGUAAUUAGAAACCCACUGUGGCCUCUUCAGGAGUGUGCUUAUGUCUGGAAUUCUCGGGUGCCAA`, “RBNS enrichment (R)” read 0.44.
For `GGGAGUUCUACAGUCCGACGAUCGGCUGCCCUGGAACUCACUUUGCAGACCAGGCUGGCCUCGAACUCAGAAAUCCGCCUGCCUCUGCCUCCCAAGUGCUGGGAUUAAAGGCGUGCGCCACCUCCGCCCAGCUUGGAAUUCUCGGGUGCCAA`, “RBNS enrichment (R)” read 0.335.
`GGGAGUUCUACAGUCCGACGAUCAAGGAUCCUCAUUUGUAUACCUAGUGGAAAGGACUCUGAACUCAGAGGAGUCACUGUUCCUUUUUUUAGGUUAGAAAUUAACAGCAGGGAAAUGCCAUCUUAUUACCUGAUGGAAUUCUCGGGUGCCAA`: “RBNS enrichment (R)” 0.353.
